Experimental data collected from several papers.
Numbered parts are unrelated; each lists some results of a single study. Several values in a cell are separate wells, animals, samples, runs or records.
UniProt P42336, sequence (whole entry, unmodified, looked up): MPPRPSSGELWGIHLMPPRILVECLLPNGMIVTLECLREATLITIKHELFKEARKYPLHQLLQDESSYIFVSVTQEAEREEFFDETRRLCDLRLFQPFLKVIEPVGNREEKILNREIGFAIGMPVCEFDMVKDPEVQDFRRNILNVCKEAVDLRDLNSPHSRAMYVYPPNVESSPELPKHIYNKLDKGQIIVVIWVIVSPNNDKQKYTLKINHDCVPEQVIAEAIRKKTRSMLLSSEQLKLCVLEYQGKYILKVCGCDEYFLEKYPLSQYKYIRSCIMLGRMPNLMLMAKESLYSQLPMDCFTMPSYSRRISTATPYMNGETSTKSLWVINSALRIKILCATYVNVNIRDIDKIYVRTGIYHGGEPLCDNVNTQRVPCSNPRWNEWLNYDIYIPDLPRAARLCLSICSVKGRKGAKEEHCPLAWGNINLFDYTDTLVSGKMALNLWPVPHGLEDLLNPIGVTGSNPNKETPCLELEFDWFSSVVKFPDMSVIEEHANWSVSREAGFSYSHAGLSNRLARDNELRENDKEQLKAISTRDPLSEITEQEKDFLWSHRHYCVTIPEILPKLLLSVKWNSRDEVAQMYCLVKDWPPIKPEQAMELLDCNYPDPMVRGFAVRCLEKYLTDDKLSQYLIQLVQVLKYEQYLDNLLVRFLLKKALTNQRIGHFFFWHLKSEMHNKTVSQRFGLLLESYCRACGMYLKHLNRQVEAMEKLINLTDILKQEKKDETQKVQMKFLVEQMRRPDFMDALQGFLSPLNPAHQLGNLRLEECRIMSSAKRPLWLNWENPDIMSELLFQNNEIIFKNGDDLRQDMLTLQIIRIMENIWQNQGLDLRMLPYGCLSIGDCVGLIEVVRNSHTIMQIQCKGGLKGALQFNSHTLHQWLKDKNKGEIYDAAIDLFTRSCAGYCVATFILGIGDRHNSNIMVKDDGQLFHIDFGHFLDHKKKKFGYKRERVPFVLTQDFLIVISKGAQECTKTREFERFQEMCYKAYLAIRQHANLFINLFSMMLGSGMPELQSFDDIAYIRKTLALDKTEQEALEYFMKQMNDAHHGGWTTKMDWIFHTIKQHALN
UniProt Q32MK0, sequence (whole entry, looked up): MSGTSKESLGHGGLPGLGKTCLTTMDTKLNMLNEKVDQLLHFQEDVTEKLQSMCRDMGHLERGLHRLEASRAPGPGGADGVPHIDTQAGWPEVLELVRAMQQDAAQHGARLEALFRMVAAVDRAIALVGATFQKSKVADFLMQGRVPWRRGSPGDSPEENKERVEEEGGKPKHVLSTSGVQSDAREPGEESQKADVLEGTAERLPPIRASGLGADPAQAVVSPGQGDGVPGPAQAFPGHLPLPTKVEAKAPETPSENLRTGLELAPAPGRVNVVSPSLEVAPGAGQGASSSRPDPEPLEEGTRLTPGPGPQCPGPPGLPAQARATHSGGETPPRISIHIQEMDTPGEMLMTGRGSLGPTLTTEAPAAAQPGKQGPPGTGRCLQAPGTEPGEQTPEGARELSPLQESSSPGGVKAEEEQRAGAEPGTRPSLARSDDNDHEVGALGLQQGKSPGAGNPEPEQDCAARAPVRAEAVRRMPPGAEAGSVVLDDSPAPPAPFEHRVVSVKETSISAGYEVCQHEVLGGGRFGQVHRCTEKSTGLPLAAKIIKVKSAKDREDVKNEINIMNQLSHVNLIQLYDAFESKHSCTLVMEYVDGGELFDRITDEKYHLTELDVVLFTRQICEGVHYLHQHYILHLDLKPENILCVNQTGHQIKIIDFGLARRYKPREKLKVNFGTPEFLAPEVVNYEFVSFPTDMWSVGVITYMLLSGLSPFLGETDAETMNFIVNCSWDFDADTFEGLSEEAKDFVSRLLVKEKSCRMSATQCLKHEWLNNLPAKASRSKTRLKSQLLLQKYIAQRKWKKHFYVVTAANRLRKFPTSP
UniProt Q9UK32, sequence (whole entry, looked up): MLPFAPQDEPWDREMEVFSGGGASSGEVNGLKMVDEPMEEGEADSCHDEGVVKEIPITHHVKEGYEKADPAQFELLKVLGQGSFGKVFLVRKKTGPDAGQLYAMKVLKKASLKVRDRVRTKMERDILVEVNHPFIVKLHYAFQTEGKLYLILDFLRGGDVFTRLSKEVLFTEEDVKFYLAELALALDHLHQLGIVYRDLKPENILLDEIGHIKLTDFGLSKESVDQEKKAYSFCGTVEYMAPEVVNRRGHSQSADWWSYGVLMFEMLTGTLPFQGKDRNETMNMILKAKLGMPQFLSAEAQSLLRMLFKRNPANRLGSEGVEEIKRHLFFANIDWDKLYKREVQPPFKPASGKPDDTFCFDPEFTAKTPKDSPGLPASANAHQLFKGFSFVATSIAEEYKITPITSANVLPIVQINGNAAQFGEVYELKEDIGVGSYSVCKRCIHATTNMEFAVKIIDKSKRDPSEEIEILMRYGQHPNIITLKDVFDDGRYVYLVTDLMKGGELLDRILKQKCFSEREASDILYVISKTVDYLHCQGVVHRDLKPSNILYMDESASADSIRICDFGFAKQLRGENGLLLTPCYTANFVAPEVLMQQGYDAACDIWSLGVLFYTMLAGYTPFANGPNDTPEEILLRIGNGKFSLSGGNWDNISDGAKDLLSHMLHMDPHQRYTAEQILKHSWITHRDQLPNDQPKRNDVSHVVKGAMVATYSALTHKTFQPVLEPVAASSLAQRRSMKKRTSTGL
UniProt P45983, sequence (whole entry, looked up): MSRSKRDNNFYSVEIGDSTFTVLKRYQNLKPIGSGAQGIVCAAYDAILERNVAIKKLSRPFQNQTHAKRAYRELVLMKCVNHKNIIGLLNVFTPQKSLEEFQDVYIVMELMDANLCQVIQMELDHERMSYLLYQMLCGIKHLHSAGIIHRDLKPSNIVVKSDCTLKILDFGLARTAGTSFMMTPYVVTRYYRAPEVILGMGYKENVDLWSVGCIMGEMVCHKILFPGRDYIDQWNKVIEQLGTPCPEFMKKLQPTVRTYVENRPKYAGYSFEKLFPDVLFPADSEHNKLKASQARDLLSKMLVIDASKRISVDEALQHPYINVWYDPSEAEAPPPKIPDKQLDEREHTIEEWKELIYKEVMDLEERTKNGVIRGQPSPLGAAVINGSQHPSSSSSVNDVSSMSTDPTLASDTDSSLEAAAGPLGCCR
UniProt Q16288, sequence (whole entry, looked up): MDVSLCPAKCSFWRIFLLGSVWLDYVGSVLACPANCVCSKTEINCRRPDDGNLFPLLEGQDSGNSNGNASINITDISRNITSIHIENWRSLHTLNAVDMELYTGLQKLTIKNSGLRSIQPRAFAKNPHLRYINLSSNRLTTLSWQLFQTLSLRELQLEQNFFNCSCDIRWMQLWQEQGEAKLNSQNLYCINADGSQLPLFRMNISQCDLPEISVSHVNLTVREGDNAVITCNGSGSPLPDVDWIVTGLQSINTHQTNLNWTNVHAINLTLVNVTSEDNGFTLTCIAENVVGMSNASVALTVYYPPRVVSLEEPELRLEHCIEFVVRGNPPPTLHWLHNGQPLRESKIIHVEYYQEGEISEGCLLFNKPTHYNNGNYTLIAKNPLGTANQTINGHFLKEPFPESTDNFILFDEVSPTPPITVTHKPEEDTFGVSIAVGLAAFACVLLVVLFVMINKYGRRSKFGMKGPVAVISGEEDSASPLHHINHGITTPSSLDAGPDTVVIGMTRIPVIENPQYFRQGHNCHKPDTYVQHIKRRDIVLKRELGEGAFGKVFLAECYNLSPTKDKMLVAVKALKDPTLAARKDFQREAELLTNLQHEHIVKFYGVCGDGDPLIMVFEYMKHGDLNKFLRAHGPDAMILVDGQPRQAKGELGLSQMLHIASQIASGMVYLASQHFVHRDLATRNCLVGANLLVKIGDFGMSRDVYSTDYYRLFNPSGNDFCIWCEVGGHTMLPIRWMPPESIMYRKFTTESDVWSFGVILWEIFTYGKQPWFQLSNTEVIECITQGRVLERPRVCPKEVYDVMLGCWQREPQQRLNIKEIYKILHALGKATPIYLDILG
UniProt Q06418, sequence (whole entry, looked up): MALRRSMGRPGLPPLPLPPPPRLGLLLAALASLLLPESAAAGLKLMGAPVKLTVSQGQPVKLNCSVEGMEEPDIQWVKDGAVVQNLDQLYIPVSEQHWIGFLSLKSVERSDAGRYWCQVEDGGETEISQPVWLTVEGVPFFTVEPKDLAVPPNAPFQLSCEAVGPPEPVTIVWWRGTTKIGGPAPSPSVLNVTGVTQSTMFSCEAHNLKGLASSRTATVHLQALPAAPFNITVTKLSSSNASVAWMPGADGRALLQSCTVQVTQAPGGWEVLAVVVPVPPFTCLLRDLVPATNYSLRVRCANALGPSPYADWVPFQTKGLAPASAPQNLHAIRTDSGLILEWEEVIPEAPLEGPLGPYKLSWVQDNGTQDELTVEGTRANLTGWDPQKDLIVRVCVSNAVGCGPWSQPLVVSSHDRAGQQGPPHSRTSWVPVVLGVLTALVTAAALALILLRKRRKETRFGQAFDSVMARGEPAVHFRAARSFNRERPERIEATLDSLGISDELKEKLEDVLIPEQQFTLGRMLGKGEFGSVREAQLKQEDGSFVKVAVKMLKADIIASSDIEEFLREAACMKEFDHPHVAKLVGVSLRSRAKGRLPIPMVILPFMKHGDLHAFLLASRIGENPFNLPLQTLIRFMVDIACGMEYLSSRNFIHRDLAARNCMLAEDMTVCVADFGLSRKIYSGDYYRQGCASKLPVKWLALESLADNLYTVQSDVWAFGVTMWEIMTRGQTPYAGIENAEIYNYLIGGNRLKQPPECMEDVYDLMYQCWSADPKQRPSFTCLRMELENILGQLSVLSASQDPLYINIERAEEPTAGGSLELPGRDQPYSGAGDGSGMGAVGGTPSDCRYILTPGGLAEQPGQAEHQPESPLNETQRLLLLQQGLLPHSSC

Set 1
Structure (SMILES): CC(=O)N[C@@H](Cc1c[nH]c2ccccc12)C(=O)N[C@@H](CCC(=O)C=[N+]=[N-])C(=O)OC(C)C
It gave 499 mm3 and 680 mm3 and 546 mm3 and 682 mm3 and 489 mm3 and 1260 mm3 for tumour volume (mouse, EL4 tumour; subcutaneous, 0.1 mg/kg, day 8).
It gave 0 mm3 for tumour volume (mice, MC-38 tumour rechallenge; 1 mg/kg, day 21 after injection).
It gave 47 mm3 and 172 mm3 and 218 mm3 and 7 mm3 and 54 mm3 and 81 mm3 and 118 mm3 for tumour volume (CES1-/- mice, OVA-expressing MC-38 tumour; dose not given, day 10 after injection).
mouse, EL4 tumour; subcutaneous, 0.1 mg/kg, day 9 — tumour volume: 495 mm3 and 1140 mm3 and 678 mm3 and 371 mm3 and 568 mm3 and 624 mm3.
For mouse, EL4 tumour; subcutaneous, 0.3 mg/kg, day 9: tumour volume read 333 mm3 and 705 mm3 and 826 mm3 and 206 mm3 and 624 mm3 and 448 mm3.
It gave 614 mm3 and 202 mm3 and 871 mm3 and 697 mm3 and 429 mm3 and 63.2 mm3 for tumour volume (mouse, EL4 tumour; subcutaneous, 0.3 mg/kg, day 11).

Set 2 — cell line: mouse MPNST tumor cells; technique: high-content immunofluorescence imaging; measured: nuclear SOX9; concentration: 10 µM; time: 12 h; setting: mean of 2 replicates; relative to: DMSO control; direction: higher = more nuclear SOX9
For CC1(C)CCC(C)(C)c2cc(C(O)C(=O)Nc3ccc(C(=O)O)cc3F)ccc21 (stereo not drawn), “nuclear SOX9 intensity” read 133 % of DMSO.
CCCCNC(=O)NS(=O)(=O)c1ccc(C)cc1 — result for “nuclear SOX9 intensity”: 98 % of DMSO.
CC(C)(C)C(=O)C(Oc1ccc(Cl)cc1)n1ccnc1 (stereo not drawn): “nuclear SOX9 intensity” 109 % of DMSO.
Cc1cc(C)c(S(=O)(=O)Nc2cccc(C(F)(F)F)c2)c(C)c1: “nuclear SOX9 intensity” 128 % of DMSO.
CN(C)c1cc(NC(=O)CNC(C)(C)C)c(O)c2c1CC1CC3C(N(C)C)C(=O)C(C(N)=O)=C(O)C3(O)C(=O)C1=C2O (stereo not drawn): “nuclear SOX9 intensity” 100 % of DMSO.

Set 3 — effect on: binding; mode: competitor; technique: NanoBRET; cells: HEK293
SMILES: CN1CCC[C@H]1COc1nc2c(c(N3CCN(S(C)(=O)=O)[C@@H](CC#N)C3)n1)CCN(c1cccc3cccc(Cl)c13)C2
KRAS G12D: GTPase KRas (KRAS, Homo sapiens, UniProt P01116, G12D)
It gave 69.8% and 80.5% and 84.7% for normalized BRET (KRAS G12D; 3.7 µM).
For KRAS G12D; 1.69 nM: normalized BRET read 102% and 88.5% and 101%.
The normalized BRET was 91.2% and 77% and 71.6% (GTPase KRas (KRAS, Homo sapiens, UniProt P01116, Q61R); 1.24 µM).
It gave 100% and 92.3% and 92% for normalized BRET (GTPase KRas (KRAS, Homo sapiens, UniProt P01116, G13D); 15.2 nM).

Set 4 — effect on: cell-free assay; technique: competition with immobilised ligand; concentration: 1 µM
Compound: COc1cc(-c2cn(C3CCc4c(F)cccc4N(CC(F)(F)F)C3=O)nn2)ccc1-n1cnc(C)c1 (stereo not drawn)
The remaining binding was 82% (Ribosomal protein S6 kinase alpha-6, N-terminal kinase domain (RPS6KA6, Homo sapiens, UniProt Q9UK32)).
Tyrosine-protein kinase ABL1, phosphorylated (ABL1, Homo sapiens, UniProt P00519, H396P) — remaining binding: 100%.
The remaining binding was 92% (MYLK3 (Homo sapiens, UniProt Q32MK0)).
The remaining binding was 66% (PIK3CA (Homo sapiens, UniProt P42336, I800L)).
TESK1 (Homo sapiens, UniProt Q15569) — remaining binding: 100%.
TLK2 (Homo sapiens, UniProt Q86UE8) — remaining binding: 100%.
MAK (Homo sapiens, UniProt P20794) — remaining binding: 100%.
It gave 100% for remaining binding (PIK3CA (Homo sapiens, UniProt P42336, M1043I)).
MAP3K20 (Homo sapiens, UniProt Q9NYL2) — remaining binding: 100%.
The remaining binding was 100% (MAPK1 (Homo sapiens, UniProt P28482)).
It gave 52% for remaining binding (MAPK8 (Homo sapiens, UniProt P45983)).
It gave 100% for remaining binding (ULK1 (Homo sapiens, UniProt O75385)).
It gave 96% for remaining binding (RIOK1 (Homo sapiens, UniProt Q9BRS2)).
For LRRK2 (Homo sapiens, UniProt Q5S007): remaining binding read 57%.
The remaining binding was 100% (KIT (Homo sapiens, UniProt P10721, V559D)).
For ZAP70 (Homo sapiens, UniProt P43403): remaining binding read 100%.
For SLK (Homo sapiens, UniProt Q9H2G2): remaining binding read 100%.
The remaining binding was 100% (MAP3K12 (Homo sapiens, UniProt Q12852)).

Set 5 — concentration: 1 µM
SMILES: C[C@H]1CC[C@H](n2c3cnccc3c3cnc(Nc4ccc5c(n4)CCN(C(=O)CO)C5)nc32)CC1
The remaining binding was 100% (TYRO3 (Homo sapiens, UniProt Q06418); binding).
For MINK1 (Homo sapiens, UniProt Q8N4C8); binding, competition with immobilised ligand: remaining binding read 69%.
TAOK3 (Homo sapiens, UniProt Q9H2K8); binding, competition with immobilised ligand — remaining binding: 77%.
NTRK3 (Homo sapiens, UniProt Q16288); cell-free assay, competition with immobilised ligand — remaining binding: 12%.
It gave 100% for remaining binding (ACVR2B (Homo sapiens, UniProt Q13705); binding, competition with immobilised ligand).
It gave 24% for remaining binding (NLK (Homo sapiens, UniProt Q9UBE8); binding, competition with immobilised ligand).

Some of these lines once more (set 1):
It gave 0 mm3 for tumour volume (mice, MC-38 tumour rechallenge; 1 mg/kg, day 21 after injection).
mouse, EL4 tumour; subcutaneous, 0.1 mg/kg, day 9 — tumour volume: 495 mm3 and 1140 mm3 and 678 mm3 and 371 mm3 and 568 mm3 and 624 mm3.
It gave 499 mm3 and 680 mm3 and 546 mm3 and 682 mm3 and 489 mm3 and 1260 mm3 for tumour volume (mouse, EL4 tumour; subcutaneous, 0.1 mg/kg, day 8).
It gave 614 mm3 and 202 mm3 and 871 mm3 and 697 mm3 and 429 mm3 and 63.2 mm3 for tumour volume (mouse, EL4 tumour; subcutaneous, 0.3 mg/kg, day 11).
It gave 47 mm3 and 172 mm3 and 218 mm3 and 7 mm3 and 54 mm3 and 81 mm3 and 118 mm3 for tumour volume (CES1-/- mice, OVA-expressing MC-38 tumour; dose not given, day 10 after injection).
For mouse, EL4 tumour; subcutaneous, 0.3 mg/kg, day 9: tumour volume read 333 mm3 and 705 mm3 and 826 mm3 and 206 mm3 and 624 mm3 and 448 mm3.
